# Published values collected from several papers.
# Each line is one published result; not all experiments were run side by side. ± gives the spread as reported.
# USP3 ZnF-UBD domain: Ubiquitin carboxyl-terminal hydrolase 3, ZnF-UBD domain (USP3, Homo sapiens, UniProt Q9Y6I4)
# UniProt Q9Y6I4, sequence (whole entry, looked up): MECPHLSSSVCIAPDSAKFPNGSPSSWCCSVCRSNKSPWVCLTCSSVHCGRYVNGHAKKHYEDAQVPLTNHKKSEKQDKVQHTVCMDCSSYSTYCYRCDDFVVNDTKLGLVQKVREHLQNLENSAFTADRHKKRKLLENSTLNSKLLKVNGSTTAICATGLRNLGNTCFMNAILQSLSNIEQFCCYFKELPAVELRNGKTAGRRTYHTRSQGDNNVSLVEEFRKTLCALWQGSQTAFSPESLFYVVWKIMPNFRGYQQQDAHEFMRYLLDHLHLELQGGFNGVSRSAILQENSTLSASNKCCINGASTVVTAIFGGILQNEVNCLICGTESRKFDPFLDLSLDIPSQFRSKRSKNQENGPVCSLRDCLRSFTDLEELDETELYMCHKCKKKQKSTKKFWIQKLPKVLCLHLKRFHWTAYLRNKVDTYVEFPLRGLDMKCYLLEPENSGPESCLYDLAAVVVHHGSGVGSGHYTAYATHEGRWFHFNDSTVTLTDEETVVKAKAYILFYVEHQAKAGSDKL
# UniProt Q16611, sequence (whole entry, looked up): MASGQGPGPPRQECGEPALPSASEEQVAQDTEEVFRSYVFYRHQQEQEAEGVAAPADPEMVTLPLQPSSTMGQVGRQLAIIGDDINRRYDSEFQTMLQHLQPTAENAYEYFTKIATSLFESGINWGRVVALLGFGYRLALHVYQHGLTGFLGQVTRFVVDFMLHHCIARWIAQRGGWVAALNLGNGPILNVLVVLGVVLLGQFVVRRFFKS
# UniProt Q8N884, sequence (whole entry, looked up): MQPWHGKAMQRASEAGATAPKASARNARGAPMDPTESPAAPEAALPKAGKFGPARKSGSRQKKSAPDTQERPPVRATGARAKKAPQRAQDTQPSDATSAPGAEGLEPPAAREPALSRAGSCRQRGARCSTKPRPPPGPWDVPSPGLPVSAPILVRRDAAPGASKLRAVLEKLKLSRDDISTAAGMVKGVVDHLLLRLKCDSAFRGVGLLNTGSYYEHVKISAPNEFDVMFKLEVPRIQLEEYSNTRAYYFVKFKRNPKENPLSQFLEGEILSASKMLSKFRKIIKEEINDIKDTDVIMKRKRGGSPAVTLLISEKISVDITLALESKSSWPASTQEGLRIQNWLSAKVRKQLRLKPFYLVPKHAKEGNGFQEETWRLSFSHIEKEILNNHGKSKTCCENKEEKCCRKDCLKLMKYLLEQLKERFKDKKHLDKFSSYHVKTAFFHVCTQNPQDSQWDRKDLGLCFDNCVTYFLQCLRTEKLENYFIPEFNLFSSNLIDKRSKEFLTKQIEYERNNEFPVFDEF
# UniProt P08684, sequence (whole entry, looked up): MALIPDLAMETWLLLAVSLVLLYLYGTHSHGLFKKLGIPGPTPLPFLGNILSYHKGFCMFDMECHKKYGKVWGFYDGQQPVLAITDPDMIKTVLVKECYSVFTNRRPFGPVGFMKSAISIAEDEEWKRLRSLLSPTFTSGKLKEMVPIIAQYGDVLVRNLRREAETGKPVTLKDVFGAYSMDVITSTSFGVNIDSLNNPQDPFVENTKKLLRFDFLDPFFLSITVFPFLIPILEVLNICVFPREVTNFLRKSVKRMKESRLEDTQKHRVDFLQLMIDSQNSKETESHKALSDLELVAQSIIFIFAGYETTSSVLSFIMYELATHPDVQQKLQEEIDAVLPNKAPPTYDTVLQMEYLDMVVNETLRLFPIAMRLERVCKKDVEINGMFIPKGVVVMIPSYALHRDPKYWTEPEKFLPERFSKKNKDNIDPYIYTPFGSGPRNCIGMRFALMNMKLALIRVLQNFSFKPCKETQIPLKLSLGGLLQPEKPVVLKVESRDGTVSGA
SMILES,tested on,assay,system,conditions,how to read,measurement,value
O=C(COCC(F)F)Nc1ccc(C2CCCCC2)cc1,,liver microsome stability,rat liver microsomes,1 µM,,hepatic clearance,46 mL/min/kg
CC[C@H]1[C@@H](O)[C@@H]2[C@H](CC[C@]3(C)[C@@H]([C@H](C)CCNC(=O)NS(=O)(=O)c4ccc(C(C)(C)C)cc4)CC[C@@H]23)[C@@]2(C)CC[C@@H](O)C[C@@H]12,"Cytochrome P450 3A4 (CYP3A4, Homo sapiens, UniProt P08684)",,"human, plasma","10 mg, day 1, compound alone",direction not given,lambda z geometric mean,0.0589 h⁻¹
Cc1cc(N)c2c(OCC(C)(C)C(=O)NC(C)C)cccc2n1,Salmonella typhimurium,"reverse mutation, plate incorporation",TA100,"50 µg/plate, with rat liver S9",,mean revertant colonies,107 colonies/plate
CN(CCC#N)C(=O)c1ccc(C2CCCCC2)cc1,,liver microsome stability,cynomolgus liver microsomes,1 µM,,hepatic clearance,40 mL/min/kg
CC[C@H](C)[C@H](NC(=O)[C@H](C)NC(=O)[C@H](CC(=O)O)NC(C)=O)C(=O)N[C@H](C(=O)N[C@@H](CCC(N)=O)C(=O)N[C@@H](CCSC)C(=O)N[C@H](C(=O)N[C@H](C(=O)N[C@@H](CCC(=O)O)C(=O)N[C@@H](CC(C)C)C(=O)N[C@@H](CC(C)C)C(=O)N[C@@H](CCCCN)C(=O)N[C@@H](CCCNC(=N)N)C(=O)N[C@H](C(=O)NCC(=O)N[C@@H](CC(=O)O)C(=O)N[C@@H](CCC(N)=O)C(=O)N[C@@H](Cc1c[nH]c2ccccc12)C(=O)N[C@@H](CCC(=O)O)C(=O)N[C@@H](CCC(=O)O)C(=O)N[C@@H](CCC(=O)O)C(=O)N[C@@H](CCC(N)=O)C(=O)N[C@@H](CO)C(=O)N[C@@H](CC(C)C)C(=O)N[C@@H](C)C(N)=O)C(C)C)C(C)C)[C@@H](C)CC)[C@@H](C)CC,"BAK1 (Homo sapiens, UniProt Q16611)","binding, bio-layer interferometry",,"pH 7.5, 2% DMSO",,koff,0.14 s⁻¹
CC[C@H](CO)N(CCN(N=O)[C@H](CC)CO)N=O,Salmonella typhimurium,"mutagenicity, Ames plate incorporation",TA1537,"2500 µg/plate, without S9, methanol",,revertant colonies per plate,12 ± 2
CCn1c(-c2nonc2N)nc2cncc(C(=O)N3CC[C@H](N)C3)c21,Trypanosoma brucei brucei,cell growth,,"concentration not given, PKIS HTS",,inhibition,93.5%
O=C(NCc1cc[nH]n1)c1ccc([C@H]2[C@@H](F)[C@@H](F)C[C@@H](F)[C@H]2F)cc1,,liver microsome stability,dog liver microsomes,1 µM,,hepatic clearance,9.4 mL/min/kg
CC(C)(C(=O)N1CCOc2c(C#N)cncc2C1)C(F)F,,refers to: skin disorders,"healthy humans, both sexes","oral, 40 mg single dose",,share of subjects with TEAE,16.7%
Cc1cc(C(=O)NC(C)(C)COc2cccc3c2C(N)=NS(=O)(=O)N3)cc(C)n1,human peripheral blood lymphocytes,"CBPI, concurrent micronucleus test",,"2000 µg/mL, 4 h",relative to: vehicle control,cytotoxicity,-4%
CN(Cc1cccnc1)C(=O)c1ccc([C@H]2[C@@H](F)[C@@H](F)C[C@@H](F)[C@H]2F)cc1,,hepatocyte stability,cryopreserved rat hepatocytes,1 µM,,hepatic clearance,38 mL/min/kg
Cc1cc(Nc2ccc(S(F)(F)(F)(F)F)cc2)n2nc(C(C)(F)F)nc2n1,Plasmodium falciparum,LC-MS/MS,"malaria patients, plasma","oral, 250 mg",,terminal half-life,86.9 h
Cn1cc(-c2ccc(-c3cncc(Cl)c3N3CCC4(CCNC4=O)CC3)cc2)cn1,COLO 205,"gene expression, microarray, refers to: PLK4 (STK18) mRNA",,"concentration not given, 2 h",relative to: untreated cells,log2 fold change,-1.74
O=C(Nc1nc2cccc(-c3ccc(CN4CCS(=O)(=O)CC4)cc3)n2n1)C1CC1,,refers to: pharyngitis,human rheumatoid arthritis patients,"oral, 75 mg once daily, 4 weeks, regardless of relatedness",,treatment-emergent adverse events,0%
Clc1ccc(Nc2ncnc3ccc(-c4cccc(N5CCOCC5)c4)cc23)cc1,Trypanosoma brucei,,HepG2,48 h,relative to: HepG2 CC50 over T. brucei GI50,selectivity index,170
O=C(O)CCn1sc2ccccc2c1=O,USP3 ZnF-UBD domain,,,,,Kd,> 1000 µM
CCOc1c([C@H](C)n2nc(C)c3c(N)ncnc32)cc(Cl)c(F)c1[C@@H]1CNC(=O)C1,,,human B-cell malignancy patients,"oral, all doses, baseline below threshold",,observations with QRS >110 ms,1.5%
O=C(Cn1ccnc1)Nc1ccc([C@H]2[C@@H](F)[C@@H](F)C[C@@H](F)[C@H]2F)cc1,,,cryopreserved rat hepatocytes,1 µM,,hepatic clearance,10 mL/min/kg
CN1CCN(c2cccc(-c3ccc4ncnc(Nc5ccc([N+](=O)[O-])c(C(F)(F)F)c5)c4c3)c2)CC1,Trypanosoma brucei,,HepG2,48 h,relative to: HepG2 CC50 over T. brucei GI50,selectivity index,1100
CC(C)C[C@H](NC(=O)C[C@H](O)[C@H](CC(C)C)NC(=O)[C@H](Cc1c[nH]cn1)NC(=O)CNC(=O)[C@@H](NC(=O)[C@H](C)NC(=O)[C@H](Cc1c[nH]c2ccccc12)NC(=O)[C@H](CCC(N)=O)NC(=O)[C@@H](Cc1ccccc1)NC(=O)COCCOCCNC(=O)CCC(C(=O)O)N1CCN(CC(=O)O)CCN(CC(=O)O)CCN(CC(=O)O)CC1)C(C)C)C(N)=O (stereo partly shown) [lutetium-177 labelled],,,"BALB/c nu/nu mice, skin","intravenous, 250 pmol, 1 h, together with: PA 300 µg",,tissue uptake,0.4 ± 0.1 %ID/g
CN1CCN(c2cccc(-c3ccc4ncnc(Nc5ccc(Cl)c(C(F)(F)F)c5)c4c3)c2)CC1,Trypanosoma brucei,,HepG2,48 h,relative to: HepG2 CC50 over T. brucei GI50,selectivity index,48
N#Cc1ccc2c(c1)[C@H]1CCCN(C(=O)c3ccc4[nH]cnc4c3)[C@H]1C2,,,"human, female","240 mg, end of trial",,androstenedione level,4.6 nmol/L
c1cc(-c2ccc3ncnc(NC4CCOCC4)c3c2)cc(N2CCOCC2)c1,Trypanosoma brucei,,HepG2,48 h,relative to: HepG2 CC50 over T. brucei GI50,selectivity index,8.6
Cc1nn(-c2nc3ccccc3[nH]2)c(O)c1C(c1ccccn1)c1c(C)nn(-c2nc3ccccc3[nH]2)c1O,"Cyclic GMP-AMP synthase, catalytic domain; with DNA (CGAS, Homo sapiens, UniProt Q8N884)","cGAS phase separation, inhibitor",,,,EC50,6.74 µM
CC(C(=O)Nc1ccc([C@H]2[C@@H](F)[C@@H](F)C[C@@H](F)[C@H]2F)cc1)n1cncn1 (stereo partly shown),,,human liver microsomes,"1 µM, without NADPH",,hepatic clearance,3.9 mL/min/kg
O=C(O)Cn1cc2ccccc2n1,USP3 ZnF-UBD domain,,,,,Kd,519 µM
FC(F)(F)c1cc(Nc2ncnc3ccc(-c4cccc(N5CCOCC5)c4)cc23)ccc1Cl,Trypanosoma brucei,,HepG2,48 h,relative to: HepG2 CC50 over T. brucei GI50,selectivity index,580
O=C(Cn1ccnc1)Nc1ccc(C2CCCCC2)cc1,,,cryopreserved rat hepatocytes,1 µM,,hepatic clearance,25 mL/min/kg

# Excerpt of the above:
SMILES,tested on,assay,system,conditions,how to read,measurement,value
Clc1ccc(Nc2ncnc3ccc(-c4cccc(N5CCOCC5)c4)cc23)cc1,Trypanosoma brucei,,HepG2,48 h,relative to: HepG2 CC50 over T. brucei GI50,selectivity index,170
O=C(Cn1ccnc1)Nc1ccc(C2CCCCC2)cc1,,,cryopreserved rat hepatocytes,1 µM,,hepatic clearance,25 mL/min/kg
CN(Cc1cccnc1)C(=O)c1ccc([C@H]2[C@@H](F)[C@@H](F)C[C@@H](F)[C@H]2F)cc1,,hepatocyte stability,cryopreserved rat hepatocytes,1 µM,,hepatic clearance,38 mL/min/kg
Cc1nn(-c2nc3ccccc3[nH]2)c(O)c1C(c1ccccn1)c1c(C)nn(-c2nc3ccccc3[nH]2)c1O,"Cyclic GMP-AMP synthase, catalytic domain; with DNA (CGAS, Homo sapiens, UniProt Q8N884)","cGAS phase separation, inhibitor",,,,EC50,6.74 µM
Cn1cc(-c2ccc(-c3cncc(Cl)c3N3CCC4(CCNC4=O)CC3)cc2)cn1,COLO 205,"gene expression, microarray, refers to: PLK4 (STK18) mRNA",,"concentration not given, 2 h",relative to: untreated cells,log2 fold change,-1.74
